Assay results pooled from the literature.
Numbered parts are unrelated; each lists some results of a single study. Positions count from the first letter of the parent shown.

Study 1
Target: CCND1, cyclin fold, Cln2 fusion (human)
Method: yeast growth competition, sequencing
Matrix: yeast
Setting: weak parent motif
Relative to: not given
Reading: higher = stronger binding
Measurement: normalised enrichment score
Parent: BRCA2 docking peptide (human); PSIKRNLLNEFDR; partner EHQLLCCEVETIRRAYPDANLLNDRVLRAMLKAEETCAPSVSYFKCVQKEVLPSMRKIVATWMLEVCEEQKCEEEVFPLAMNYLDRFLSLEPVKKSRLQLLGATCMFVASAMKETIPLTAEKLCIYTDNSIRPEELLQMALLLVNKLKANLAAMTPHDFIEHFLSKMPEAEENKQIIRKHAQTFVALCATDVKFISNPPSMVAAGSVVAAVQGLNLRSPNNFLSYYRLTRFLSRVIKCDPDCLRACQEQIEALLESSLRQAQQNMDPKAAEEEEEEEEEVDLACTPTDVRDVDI
I3L: 0.849
F11C: -0.668
R5I: 0.484
L8C: 0.236
I3E: 0.164
E10L: 0.956
P1V: 0.879
R5S: -0.205
P1L: 0.0522
I3K: 0.432
F11H: -0.336

Study 2
Target: Interferon regulatory factor 3, full length, phosphomimetic (IRF3, Homo sapiens, UniProt Q14653, residues 1-427, S386D/S396D/S398D/S402D/T404D/S405D)
Method: protein-binding microarray
Molecule type: double-stranded DNA, one strand shown
Matrix: in vitro
Concentration: 2540 nM top
Setting: 60-bp whole probe
Together with: salmon DNA 0.4 mg/ml
Relative to: random background probes
Reading: higher = stronger binding
Measurement: fitted relative affinity
Constant ends, left off below: GCCTAGCAC … GTCTTGATTCGCTTGACGCTGCTG
Construct (chain): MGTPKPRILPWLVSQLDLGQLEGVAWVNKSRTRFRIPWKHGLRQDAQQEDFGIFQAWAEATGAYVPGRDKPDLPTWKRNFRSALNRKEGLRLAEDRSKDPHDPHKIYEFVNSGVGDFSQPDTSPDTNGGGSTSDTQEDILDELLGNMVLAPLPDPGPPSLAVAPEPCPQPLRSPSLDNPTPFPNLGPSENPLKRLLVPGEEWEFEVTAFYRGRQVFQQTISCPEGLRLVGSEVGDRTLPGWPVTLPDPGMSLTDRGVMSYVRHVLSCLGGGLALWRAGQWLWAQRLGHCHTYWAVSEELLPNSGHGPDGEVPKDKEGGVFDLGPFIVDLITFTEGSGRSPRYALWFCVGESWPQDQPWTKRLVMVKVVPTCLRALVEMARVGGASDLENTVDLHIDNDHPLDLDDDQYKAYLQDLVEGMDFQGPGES
GAAGATATCGGGTTTCGAGACGTGCTA: 1.06 z-score
GACGAACTGGGGAATGGAGACGTGCTA: -0.154 z-score
TTAGGACTGCTTATCGTTTAGTGCTAG: -0.324 z-score
GACGGTTTCCTTATCCTGAAGTGCTAG: 7.9 z-score
GACGAACTGGGTTTTCGAGACGTGCTA: 0.0947 z-score
TTAGGAGTGCTTCTCCTTTAGTGCTAG: -0.0511 z-score
GACGGAATGGGGACTGGGGACGTGCTA: -0.613 z-score
GACGGACTGCCACTGCTGACGTGCTAG: -0.866 z-score
GACGGACAGGGGTTTCGGGACGTGCTA: 0.669 z-score
TTAGGTCTCCTTTTCTTTTAGTGCTAG: 4.89 z-score
TCAACTCCCCAACTCGCACTGTGCTAG: 0.607 z-score
TTAGATCTCAGTTTCGATTAGTGCTAG: 3.73 z-score
GATGGACTGCTTTTCCTGACGTGCTAG: -0.341 z-score
TCAAATTTCCCTCTCCCACTGTGCTAG: 4.28 z-score
GACGGTTTCCACTTTCGGGACGTGCTA: 5.16 z-score
TGAGGTCTCCTTTTCCTTTAGTGCTAG: 4.91 z-score
GACGATATAAGACTGGAGACGTGCTAG: -0.0248 z-score
TTAGAACTGAGTCTCGATTTGTGCTAG: -0.189 z-score
TTAGGTCTGCTTTTCCTTTAGTGCTAG: 0.924 z-score

Study 3
Target: Histone acetyltransferase KAT6A, both winged helices, GST fusion (KAT6A, Homo sapiens, UniProt Q92794, residues 1-181)
Method: protein binding microarray
Molecule type: double-stranded DNA, one strand shown
Matrix: in vitro
Concentration: not given
Setting: 8-mer, flanks averaged, mean of 2 arrays, mostly near background
Relative to: not given
Reading: higher = stronger binding
Measurement: E-score
Construct (chain): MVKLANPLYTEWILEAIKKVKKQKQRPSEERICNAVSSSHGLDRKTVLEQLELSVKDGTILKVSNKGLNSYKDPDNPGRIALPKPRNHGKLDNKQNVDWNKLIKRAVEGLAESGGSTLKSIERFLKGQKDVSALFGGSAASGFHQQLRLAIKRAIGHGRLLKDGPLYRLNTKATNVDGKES
CTTGTAAA: -0.105
GATCTAAA: -0.0808
ACCGTTCT: 0.0292
GTAGGTCA: -0.117
GTACATTA: -0.017
TCTGCCCA: -0.197
CGCCCTCC: 0.129
ACTTGATA: -0.103
AGCCACCG: 0.113
AAATGTTG: -0.0637
ATGCCGCG: 0.369
GCGACGCA: 0.319
ACGCACTA: 0.114
CAGTTATG: -0.149
CGCGACTC: 0.138
CTACATGC: -0.00789
AAATCGAC: 0.0419
GGTATCTA: 0.114
ACTCACCC: -0.12
AACTAATT: -0.086
AATCGCAC: -0.0145
ACATCAGC: 0.00843
CATTACCA: -0.136
GGACCTCA: -0.061
GACCATAA: -0.133

Study 4
Target: UBE2C UBC core domain (UniProt O00762)
Method: yeast two-hybrid
Matrix: yeast
Setting: mostly zero background
Relative to: not given
Reading: higher = stronger interaction
Measurement: lacZ reporter activity
B1: HLTF RING domain (UniProt Q14527); chain LILSSGSDEECAICLDSLTVPVITHCAHVFCKPCICQVIQNEQPHAKCPLCRNDIHEDNLLE
B2: NFX1 RING domain (UniProt Q12986); chain IEQLTTEKYECMVCCELVRVTAPVWSCQSCYHVFHLNCIKKWARSPASQADGQSGWRCPACQNVSAHVPNTY
B3: VPS8 RING domain (UniProt Q8N3P4); chain TRGLNPKQDYCSICLQQYKRRQEMADEIIVFSCGHLYHSFCLQNKECTVEFEGQTRWTCYKCSSSNKVGKLSE
B4: ZMYND11 RING domain (UniProt Q15326); chain DEIDWETENHDWYCFECHLPGEVLICDLCFRVYHSKCLSDEFRLRDSSSPWQCPVCRSIKKKNTNKQEM
B5: ZNRF4 RING domain (UniProt Q8WWF5); chain VRTFTWHNDLCAICLDEYEEGDQLKILPCSHTYHCKCIDPWFSQAPRRSCPVCKQSVAATEDSF
Construct (chain): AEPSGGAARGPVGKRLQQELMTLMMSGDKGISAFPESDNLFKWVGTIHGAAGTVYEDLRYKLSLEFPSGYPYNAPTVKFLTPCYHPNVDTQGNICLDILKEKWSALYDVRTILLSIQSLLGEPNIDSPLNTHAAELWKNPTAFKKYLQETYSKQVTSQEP
B1 (HLTF RING domain): 0
B2 (NFX1 RING domain): 0
EIKEYKARLTCPCCNTRKKDAVLTKCFHVFCFECVRGRYEARQRKCPKCNAAFGAHDFHR (RNF40 RING domain (UniProt O75150)): 0
ASPKIFQKTKCSICNSALELPSVHFLCGHSFHQHCFESYSESDADCPTCLPENRKVMDMI (VPS11 RING domain (UniProt Q9H270)): 0
B3 (VPS8 RING domain): 0
DDVLTKDAGECVICLEELLQGDTIARLPCLCIYHKSCIDSWFEVNRSCPEHPAD (ZNRF1 RING domain (UniProt Q8ND25)): 0
B4 (ZMYND11 RING domain): 0
B5 (ZNRF4 RING domain): 0
ASEEEFQFLRCQQCQAEAKCPKLLPCLHTLCSGCLEASGMQCPICQAPWPLGADTP (PML RING domain (UniProt P29590)): 0

Study 5
Target: ABI1, truncated, D143A, DHFR fusion (Arabidopsis thaliana, UniProt P49597)
Method: DHFR PCA, dose-response
Matrix: yeast
Setting: Hill fit, mean, not affinity
Together with: (+)-ABA, dose series
Reading: lower = more sensitive
Measurement: ABA EC50
Parent: PYL1, truncated, DHFR fusion (Arabidopsis thaliana, UniProt Q8VZS8); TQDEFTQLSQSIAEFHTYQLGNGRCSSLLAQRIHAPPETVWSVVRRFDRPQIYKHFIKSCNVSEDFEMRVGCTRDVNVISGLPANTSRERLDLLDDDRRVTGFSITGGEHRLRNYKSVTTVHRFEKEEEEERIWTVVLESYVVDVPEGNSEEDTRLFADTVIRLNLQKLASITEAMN
H122A: 186 µM
R111Y: 89.5 µM
D75F: 1.23 µM
V121M: 127 µM
L82P: 33.5 µM
P36G: 19.2 µM
F15H: 2.91 µM
L20G: 2.3 µM
S87C: 186 µM
W134F: 1.49 µM
R123L: 4.81 µM
D144P: 45.2 µM
K168D: 133 µM
Y53V: 320 µM
M176S: 3.98 µM

Excerpt of the above (study 2):
GACGAACTGGGTTTTCGAGACGTGCTA: 0.0947 z-score
TTAGGAGTGCTTCTCCTTTAGTGCTAG: -0.0511 z-score
GACGGAATGGGGACTGGGGACGTGCTA: -0.613 z-score
GACGGACTGCCACTGCTGACGTGCTAG: -0.866 z-score
